Published values from different studies.
Compare with care: the assays were run in different laboratories. Values joined by “and” are separate records of one study, mostly repeats; a detail may differ. ± gives the spread as reported. In brackets after ≈: the same amount, converted by molar mass.

Oc1c(Br)cc(Br)c2nc3ccc(C(F)(F)F)cc3nc12  MBEC (Enterococcus faecalis; Calgary biofilm device; OG1RF): 150 µM
CN(C(=O)c1ccn2ncc(-c3ccc(C(N)=O)cc3)c2c1)c1ccc(C#N)cn1  faecal Nluc luminescence (Cryptosporidium parvum; UGA1 Nluc, IFN-gamma knockout C57BL/6 mice, faeces; oral, 10 mg/kg daily, 408 h post infection, treatment days 11-17; higher means more parasites): 174 a.u. and 712 a.u. and 24500 a.u. and 1700 a.u. and 285 a.u. and 239 a.u.
CCc1nn(C)c2nc(-c3ccc(C(=O)O)cc3)nc(NCc3ccccc3)c12  parasite number (Cryptosporidium parvum; HCT-8; 3 x EC90, 24 h; reference: DMSO control): 56.5% and 62.4% and 60.4% and 41.1%
CC[C@H](C)[C@H](NC(=O)[C@H](CCCCN)NC(=O)[C@H](CC(=O)O)NC(=O)[C@H](CC(C)C)NC(=O)[C@@H](NC(=O)[C@H](CC(N)=O)NC(=O)[C@H](CC(C)C)NC(=O)[C@@H](NC(=O)[C@H](Cc1ccccc1)NC(=O)[C@H](CCCCN)NC(=O)[C@H](CCCCN)NC(=O)CNC(=O)[C@H](C)NC(=O)[C@H](CC(N)=O)NC(=O)[C@H](CCCCN)NC(=O)[C@H](Cc1ccccc1)NC(=O)[C@H](CC(N)=O)NC(=O)[C@H](CCC(=O)O)NC(=O)[C@H](Cc1c[nH]c2ccccc12)NC(=O)[C@H](CC(C)C)NC(=O)[C@@H](N)CO)[C@@H](C)CC)[C@@H](C)CC)C(=O)N[C@@H](CCCNC(=N)N)C(=O)N[C@H]1CSSC[C@@H](C(=O)N[C@@H](CCCNC(=N)N)C(=O)N[C@H](C(=O)O)[C@@H](C)O)NC(=O)CNC(=O)CNC(=O)[C@H](C)NC(=O)[C@H](C(C)C)NC(=O)[C@H](CCCNC(=N)N)NC1=O  geometric mean MIC (all tested microorganisms): 24.7 µM
CC(C)CCCCCCCCC/C=C/C(=O)N[C@@H](CC(=O)O)C(=O)N[C@H]1CNC(=O)[C@@H]2CCCN2C(=O)[C@H](C(C)C)NC(=O)[C@@H](CN)NC(=O)CNC(=O)[C@H](CC(=O)O)NC(=O)CNC(=O)[C@H](CC(=O)O)NC(=O)[C@H](CC(=O)O)NC(=O)[C@H]2CCCCN2C1=O  MIC (Enterococcus; broth microdilution; VRE 155, Mueller-Hinton broth, Mg2+ 10 mg/L; 16 h, together with: Ca2+ 2.5 mM): 2 µg/mL (≈ 1.57 µM)
CC(C)[C@H]1NC(=O)[C@H](Cc2ccccc2)NC(=O)[C@@H](C(C)C)NC(=O)[C@@H](C)NC(=O)[C@H](CO)NC(=O)[C@@H](Cc2c(-c3ccc(C4CCCCC4)cc3)[nH]c3ccccc23)NC(=O)[C@@H](CO)NC1=O  MIC90 (Vibrio vulnificus; broth dilution): > 50 µM
O=C(CCN(CCC(=O)N[C@@H](Cc1c[nH]c2ccccc12)C(=O)O)C(=O)CCN(CCC(=O)N(CCC(=O)N[C@@H](Cc1c[nH]c2ccccc12)C(=O)O)CCC(=O)N[C@@H](Cc1c[nH]c2ccccc12)C(=O)O)C(=O)c1cc(C(=O)N(CCC(=O)N(CCC(=O)N[C@@H](Cc2c[nH]c3ccccc23)C(=O)O)CCC(=O)N[C@@H](Cc2c[nH]c3ccccc23)C(=O)O)CCC(=O)N(CCC(=O)N[C@@H](Cc2c[nH]c3ccccc23)C(=O)O)CCC(=O)N[C@@H](Cc2c[nH]c3ccccc23)C(=O)O)cc(C(=O)N(CCC(=O)N(CCC(=O)N[C@@H](Cc2c[nH]c3ccccc23)C(=O)O)CCC(=O)N[C@@H](Cc2c[nH]c3ccccc23)C(=O)O)CCC(=O)N(CCC(=O)N[C@@H](Cc2c[nH]c3ccccc23)C(=O)O)CCC(=O)N[C@@H](Cc2c[nH]c3ccccc23)C(=O)O)c1)N[C@@H](Cc1c[nH]c2ccccc12)C(=O)O  EC50 (human adenovirus 2; viral replication; HEL cells): 6900 ± 140 nM
COc1ccc(C2=[N+]([O-])c3ccccc3N3CCCN=C23)cc1  MIC50 (Bacteroides fragilis; microbial growth): 1 µg/mL (≈ 3.25 µM)
CCCC/C=C/C(=O)N[C@@H](Cc1csc2ccccc12)C(=O)N[C@H]1COC(=O)[C@@H]2C[C@@H](C)CN2C(=O)[C@H](C)NC(=O)[C@@H]2CCCCN2C(=O)[C@@H]2CCCN2C1=O  RNA release (human coronavirus OC43; Huh-7 CLPP knock-out 2; concentration not given, unit not given; reference: DMSO): 0.138 and 0.135 and 0.105
CON(C(=O)c1cn(C)nc1C(F)F)C(C)Cc1c(Cl)cc(Cl)cc1Cl (centres unmarked)  EC50 (Blumeria graminis; Triticum aestivum; in vivo wheat powdery mildew): 0.992 µg/mL
CC(C)[C@H]1NC(=O)[C@H](Cc2ccccc2)NC(=O)[C@@H](C(C)C)NC(=O)[C@@H](C)NC(=O)[C@H](CO)NC(=O)[C@@H](Cc2c(-c3ccc(-c4ccccc4)c4ccccc34)[nH]c3ccccc23)NC(=O)[C@@H](CO)NC1=O  MIC90 (Vibrio vulnificus; broth dilution): > 50 µM
CCN(CC)CCO.O=C(O)C(Cl)Cl  inhibition (Amaranthus retroflexus; herbicidal activity; 15 mg/mL, 21 days, post-emergence greenhouse): 46%
CCOC(=O)C1(Cc2ccccc2)Oc2cc(F)ccc2N(Cc2ccccc2)C1=O (centres unmarked)  fresh weight inhibition (Amaranthus retroflexus; greenhouse; postemergence, 150 g ai/ha, 21 days): 71.2 ± 3.9%
Cc1cc(C(=O)Nc2nc3cccc(C)c3n2[C@H]2CCCCN(C(=O)/C=C/CN(C)C)C2)ccn1  survival (Trypanosoma brucei brucei; 2T1 CLK1 overexpressing; 0.0098 µM, DMSO pretreated; reference: maximum): 56.3% and 58.9% and 45.4% and 64.5%
CC[C@H](C)CCCCC(=O)N[C@@H](CCN)C(=O)N[C@H](C(=O)N[C@@H](CCN)C(=O)N[C@H]1CCNC(=O)[C@H]([C@@H](C)O)NC(=O)[C@H](CCN)NC(=O)[C@H](CCN)NC(=O)[C@H](CC(C)C)NC(=O)[C@@H](CC(C)C)NC(=O)[C@H](CCN)NC1=O)[C@@H](C)O  MIC fold change (Escherichia coli; daily serial passaging; ATCC 8739; highest sub-MIC, 5 days; reference: initial MIC): 1.95
CCc1cc(CCC(=O)O)nc(-c2nc(=O)c3ccc(F)cc3s2)c1  EC50 (Acinetobacter baumannii; cell growth, inhibitor; NCTC 13424 XDR; 5% CO2): > 100000 nM
C=CCN1C(=O)C(CC=C)(C(=O)OCC)Oc2cc(F)ccc21 (centres unmarked)  fresh weight inhibition (Amaranthus retroflexus; greenhouse; postemergence, 150 g ai/ha, 21 days): 52.9 ± 4.57%
COc1ccc(Cn2c3cc(=O)n(Cc4cccc(Cl)n4)c(C)c3c(=O)n2-c2ccccn2)cc1  normalized viral replication (human respiratory syncytial virus; recombinant reporter virus; concentration not given, scale 0 to 100, together with: adenosine 300 µM): 0
CCOC(=O)C1(Cc2ccccc2)Oc2cc(C)ccc2N(Cc2ccccc2)C1=O (centres unmarked)  inhibition (Amaranthus retroflexus; fresh weight, greenhouse postemergence; postemergence, 150 g ai/ha, 21 days): 43.1 ± 4.26%
C[N+]1=C2C(c3ccccc3)=[N+]([O-])c3ccccc3N2CCC1  MIC90 (Bacteroides fragilis): 2 µg/mL
COc1ccccc1-c1n[nH]c2nc(NC3CCN(C(=O)Cc4ccc(F)cc4F)CC3)ncc12  EC50 (Leishmania donovani; cell growth; promastigotes, LdBOB; life-cycle stage comparison): 5.2 ± 0.4 nM
FC(F)(F)c1cccc(CNc2nc(NC3CCN(Cc4ccccc4)CC3)c3nc[nH]c3n2)c1  mRNA fold change (Cryptococcus neoformans; RNA-seq, refers to: INM1 (CNAG_01823); 48 µg/mL, 3 h; reference: untreated): 1.25
CCOC(=O)C1(Cc2c(F)cccc2F)Oc2cc(F)ccc2N(Cc2c(F)cccc2F)C1=O (centres unmarked)  inhibition (Amaranthus retroflexus; fresh weight, greenhouse postemergence; postemergence, 150 g ai/ha, 21 days): 65.4 ± 2.94%
O=[N+]([O-])c1ccc(C2=[N+]([O-])c3ccccc3N3CCCN=C23)cc1  MIC90 (Bacteroides fragilis): ≤ 0.06 µg/mL
CCC1(CC)CC(=O)N(C2c3cc(C(=O)NC4c5ccccc5CC4O)ccc3OC2(C)COC)C(=N)N1 (centres unmarked)  EC50 (Plasmodium falciparum; parasite growth; 3D7): 0.4 nM
CN(C)S(=O)(=O)c1ccc(S(=O)(=O)N2CCC(n3c(=O)[nH]c4ccccc43)CC2)cc1  streptomycin concentration (Escherichia coli; Keio wild type; concentration not given, 96 h): 3.92 µg/mL
CCOC(=O)C1(Cc2ccc(OC)cc2)Oc2cc(F)ccc2N(Cc2ccc(OC)cc2)C1=O (centres unmarked)  inhibition (Amaranthus retroflexus; fresh weight, greenhouse postemergence; postemergence, 150 g ai/ha, 21 days): 44.3 ± 5.31%
CC(C)[C@H]1NC(=O)[C@H](Cc2ccccc2)NC(=O)[C@@H](C(C)C)NC(=O)[C@@H](C)NC(=O)[C@H](CO)NC(=O)[C@@H](Cc2c(-c3ccc(-c4ccc(-c5ccccc5)cc4)cc3)[nH]c3ccccc23)NC(=O)[C@@H](CO)NC1=O  MIC90 (Vibrio vulnificus; broth dilution): > 50 µM
C[N+]1=C2C(c3ccc(Cl)cc3)=[N+]([O-])c3ccccc3N2CCC1  MIC50 (Bacteroides fragilis; microbial growth): 4 µg/mL

Some of these lines once more:
CON(C(=O)c1cn(C)nc1C(F)F)C(C)Cc1c(Cl)cc(Cl)cc1Cl (centres unmarked)  EC50 (Blumeria graminis; Triticum aestivum; in vivo wheat powdery mildew): 0.992 µg/mL
CCOC(=O)C1(Cc2c(F)cccc2F)Oc2cc(F)ccc2N(Cc2c(F)cccc2F)C1=O (centres unmarked)  inhibition (Amaranthus retroflexus; fresh weight, greenhouse postemergence; postemergence, 150 g ai/ha, 21 days): 65.4 ± 2.94%
O=[N+]([O-])c1ccc(C2=[N+]([O-])c3ccccc3N3CCCN=C23)cc1  MIC90 (Bacteroides fragilis): ≤ 0.06 µg/mL
COc1ccc(C2=[N+]([O-])c3ccccc3N3CCCN=C23)cc1  MIC50 (Bacteroides fragilis; microbial growth): 1 µg/mL (≈ 3.25 µM)
CC[C@H](C)[C@H](NC(=O)[C@H](CCCCN)NC(=O)[C@H](CC(=O)O)NC(=O)[C@H](CC(C)C)NC(=O)[C@@H](NC(=O)[C@H](CC(N)=O)NC(=O)[C@H](CC(C)C)NC(=O)[C@@H](NC(=O)[C@H](Cc1ccccc1)NC(=O)[C@H](CCCCN)NC(=O)[C@H](CCCCN)NC(=O)CNC(=O)[C@H](C)NC(=O)[C@H](CC(N)=O)NC(=O)[C@H](CCCCN)NC(=O)[C@H](Cc1ccccc1)NC(=O)[C@H](CC(N)=O)NC(=O)[C@H](CCC(=O)O)NC(=O)[C@H](Cc1c[nH]c2ccccc12)NC(=O)[C@H](CC(C)C)NC(=O)[C@@H](N)CO)[C@@H](C)CC)[C@@H](C)CC)C(=O)N[C@@H](CCCNC(=N)N)C(=O)N[C@H]1CSSC[C@@H](C(=O)N[C@@H](CCCNC(=N)N)C(=O)N[C@H](C(=O)O)[C@@H](C)O)NC(=O)CNC(=O)CNC(=O)[C@H](C)NC(=O)[C@H](C(C)C)NC(=O)[C@H](CCCNC(=N)N)NC1=O  geometric mean MIC (all tested microorganisms): 24.7 µM
